Measurements from different studies.
Each line is one published result; not all experiments were run side by side.
MET: Hepatocyte growth factor receptor (MET, Homo sapiens, UniProt P08581)
MET M1250T: Hepatocyte growth factor receptor (MET, Homo sapiens, UniProt P08581, M1250T)
MET Y1235D: Hepatocyte growth factor receptor (MET, Homo sapiens, UniProt P08581, Y1235D)

SMILES	target	observed	method	tested at	relative to	remaining binding [%]
CNC1C[S+]2CC[S+]3CC[S+](C1)[Ru-4]321([N]=C=S)[n]2c3ccc(OC)cc3c3c4c(c5cc(F)c[n+]1c5c32)C(=O)NC4=O (stereo not shown)	MET	–	KinomeScan	0.1 µM	untreated	100
Cc1cnc2nc1Nc1cccc(c1)COC/C=C/COCc1cc(ccc1OCCN1CCOCC1)N2	MET M1250T	binding	–	0.1 µM	–	95
COc1c(Cl)cccc1Nc1c(-c2ccncc2C#C[C@@]2(C)CCCN2C(=O)/C=C/CN(C)C)[nH]c2c1C(=O)NCC2	MET M1250T	cell-free assay	competition with immobilised ligand	3 µM	–	82
C=CC(=O)N1CCc2ccc(-n3c(=O)ccc4cnc5ccc(-c6cnn(C)c6)cc5c43)cc21	MET Y1235D	–	KINOMEscan	1 µM	DMSO control	100
CC(C)=CC1OC(C)(C)C2C=C3C(=O)C(Cl)=CC(O)C3C3C(O)C4OC4C(=O)C132 (stereo not shown)	MET	cell-free assay	competition with immobilised ligand	10 µM	–	89
CNC(=O)C1CCN(c2cc(C)c(F)cc2NC(=O)c2ccc(-c3cc(O)ccc3C)c(C)c2)CC1	MET	binding	competition with immobilised ligand	1 µM	–	100
COc1ccc(NC(=O)Nc2ccc3c(c2)C(=O)N(C(C)CO)CC(C)C(CN(C)Cc2ccc4c(c2)OCO4)O3)cc1 (stereo not shown)	MET	binding	competition with immobilised ligand	10 µM	–	100
COc1cc(Nc2nccc(-c3cnn4nc(OC)ccc34)n2)cc(C(F)(F)F)c1	MET Y1235D	binding	–	1 µM	–	100
C=CC(=O)N1CCCC(n2c(=O)c3ncccc3n(Cc3ccc(Oc4ccccc4)cc3)c2=O)C1 (stereo not shown)	MET M1250T	cell-free assay	competition with immobilised ligand	1 µM	–	92
Cc1ccc(-c2c(/C=C(\C#N)C(=O)NC(C)C)n(CCCO)c3ncnc(N)c23)cc1	MET M1250T	cell-free assay	competition with immobilised ligand	1 µM	–	82
CCN1CCN(Cc2ccc(C(=O)Nc3ccc(C)c(NCc4cnc5[nH]ccc5c4OC)c3)cc2C(F)(F)F)CC1	MET M1250T	binding	competition with immobilised ligand	1 µM	–	98
Nc1ncc2c(n1)-c1c([nH]c3ccc(C4=CCOCC4)cc13)CCC2	MET Y1235D	binding	competition with immobilised ligand	1 µM	–	100
CN1CCN(Cc2ccc(NC(=O)c3cccc(C#Cc4cnc(N)c5ncccc45)c3)cc2C(F)(F)F)CC1	MET	cell-free assay	competition with immobilised ligand	50 nM	–	86

Some of these lines once more:
SMILES	target	observed	method	tested at	relative to	remaining binding [%]
CC(C)=CC1OC(C)(C)C2C=C3C(=O)C(Cl)=CC(O)C3C3C(O)C4OC4C(=O)C132 (stereo not shown)	MET	cell-free assay	competition with immobilised ligand	10 µM	–	89
